Experimental data gathered from unrelated publications.
Compare with care: the assays were run in different laboratories.

For `C[C@@H]1OC(=O)NN=C1c1ccc(-c2ccc(F)cc2)c(C(F)(F)F)c1`, “patients with muscle spasms” read 0% (patients, phase I trial; oral, 5 mg once daily, any grade TEAE).
For `COc1c(OCCCN2CCOCC2)ccc2c1N=C(NC(=O)c1cnc(N)nc1)N1CCN=C21`, “patients with adverse event” read 52% (measured: Hypertension; patients with advanced malignancies; intravenous, dose not given, any grade, all cohorts, with: gemcitabine).
For `CN1CC[C@@H](c2c(O)cc(O)c3c(=O)cc(-c4ccc(C(F)(F)F)cc4Cl)oc23)[C@@H]1CO`, “patients with adverse event” read 17.5% (measured: Anorexia; relapsed or refractory haematological malignancies; oral, dose not given, all arms).
For `CC(=O)c1c(C)c2cnc(Nc3ccc(C4CCN(CCS(C)(=O)=O)CC4)cn3)nc2n(C2CCCC2)c1=O`, “patients with neutropenia” read 73.3% (HR+/HER2- advanced breast cancer patients; oral, 100 mg bid, grade 3/4, monotherapy arm).
Under “patients with fatal TEAE”, `N[C@@H]1c2ccccc2OC12CCN(c1cnc3c(N4CCCc5ncccc54)n[nH]c3n1)CC2` is recorded as 0% (advanced solid tumour patients; oral, 150 mg once daily).
Under “patients with grade ≥1 TEAE”, `O=C1Nc2cc3[nH]nc(-c4ccncc4)c3cc2CN1Cc1ccccc1` is recorded as 100% (patients with advanced solid tumours; intravenous, dose not given, both schedules pooled).
`CO[C@H]1C[C@@H]2CC[C@@H](C)[C@@](O)(O2)C(=O)C(=O)N2CCCC[C@H]2C(=O)O[C@H]([C@H](C)C[C@@H]2CC[C@@H](OC(=O)NCCOCCOCCOCCOCCOCCOCCOCCOCCC(=O)N3CCc4cc(Cn5nc(-c6ccc7oc(N)nc7c6)c6c(N)ncnc65)ccc4C3)[C@H](OC)C2)C[C@@H](O)[C@H](C)/C=C(\C)[C@@H](O)[C@@H](OC)C(=O)[C@H](C)C[C@H](C)/C=C/C=C/C=C/1C` — result for “patients with AE”: 58% (measured: mucositis TEAE, any grade; patients with advanced solid tumours; intravenous, dose not given, all patients, weekly).
Under “patients with adverse event”, `CCN(CCO)CCCC(C)Nc1ccnc2cc(Cl)ccc12` (centres unmarked) is recorded as 33% (measured: Ataxia grade 1; newly diagnosed glioblastoma patients; oral, 200 mg/dose, with radiotherapy and temozolomide).
`Cc1cc(OCCOCCC(F)(F)P(=O)(O)O)ccc1CCc1cnc2c(N)nc3cc(CCC(=O)O)ccc3c2c1`: “patients with non-serious AE” 11.1% (measured: fatigue; adults with advanced solid tumours; dose not given, all groups pooled, all grades).
`Nc1nc2cc(-c3ccc4ncc(C(=O)N5CCOCC5)n4c3)ccc2o1` — result for “patients with adverse event”: 3% (measured: Vomiting; advanced solid tumour patients; dose not given).
Under “patients with fatigue TEAE”, `C=CCNc1c(O)cc2c(O)c1C[C@@H](C)C[C@H](OC)[C@H](O)[C@@H](C)/C=C(\C)[C@H](OC(N)=O)[C@@H](OC)/C=C\C=C(/C)C(=O)N2` is recorded as 71% (unresectable or metastatic STS, GIST, other; intravenous, 500 mg/m^2).

A few entries again:
`CO[C@H]1C[C@@H]2CC[C@@H](C)[C@@](O)(O2)C(=O)C(=O)N2CCCC[C@H]2C(=O)O[C@H]([C@H](C)C[C@@H]2CC[C@@H](OC(=O)NCCOCCOCCOCCOCCOCCOCCOCCOCCC(=O)N3CCc4cc(Cn5nc(-c6ccc7oc(N)nc7c6)c6c(N)ncnc65)ccc4C3)[C@H](OC)C2)C[C@@H](O)[C@H](C)/C=C(\C)[C@@H](O)[C@@H](OC)C(=O)[C@H](C)C[C@H](C)/C=C/C=C/C=C/1C` — result for “patients with AE”: 58% (measured: mucositis TEAE, any grade; patients with advanced solid tumours; intravenous, dose not given, all patients, weekly).
Under “patients with adverse event”, `CCN(CCO)CCCC(C)Nc1ccnc2cc(Cl)ccc12` (centres unmarked) is recorded as 33% (measured: Ataxia grade 1; newly diagnosed glioblastoma patients; oral, 200 mg/dose, with radiotherapy and temozolomide).
